Results pooled from the literature.
Compare with care: the assays were run in different laboratories. ± marks the error that the study gave.
PRIMPOL: PRIMPOL 1-560 (Homo sapiens, UniProt Q96LW4)
UniProt Q96LW4, sequence (whole entry, looked up): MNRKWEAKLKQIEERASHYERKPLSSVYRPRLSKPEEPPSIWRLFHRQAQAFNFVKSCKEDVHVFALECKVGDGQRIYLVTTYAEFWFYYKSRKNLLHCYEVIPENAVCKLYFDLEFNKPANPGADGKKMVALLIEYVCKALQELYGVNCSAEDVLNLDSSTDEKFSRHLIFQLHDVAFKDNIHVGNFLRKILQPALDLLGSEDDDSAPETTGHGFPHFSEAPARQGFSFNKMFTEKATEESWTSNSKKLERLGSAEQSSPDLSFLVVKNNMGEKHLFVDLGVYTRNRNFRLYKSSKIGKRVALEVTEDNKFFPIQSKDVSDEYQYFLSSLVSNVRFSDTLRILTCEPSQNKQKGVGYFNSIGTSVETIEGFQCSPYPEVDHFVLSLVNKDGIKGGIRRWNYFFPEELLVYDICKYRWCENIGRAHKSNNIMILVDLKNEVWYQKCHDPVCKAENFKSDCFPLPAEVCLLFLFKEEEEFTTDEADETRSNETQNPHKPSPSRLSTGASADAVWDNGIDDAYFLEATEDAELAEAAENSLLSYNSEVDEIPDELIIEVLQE
TFRC: TFRC fragment (Homo sapiens)
GZF1: GZF1 250-711 (Homo sapiens, UniProt Q9H116)
UniProt Q9H116, sequence (whole entry, unmodified, looked up): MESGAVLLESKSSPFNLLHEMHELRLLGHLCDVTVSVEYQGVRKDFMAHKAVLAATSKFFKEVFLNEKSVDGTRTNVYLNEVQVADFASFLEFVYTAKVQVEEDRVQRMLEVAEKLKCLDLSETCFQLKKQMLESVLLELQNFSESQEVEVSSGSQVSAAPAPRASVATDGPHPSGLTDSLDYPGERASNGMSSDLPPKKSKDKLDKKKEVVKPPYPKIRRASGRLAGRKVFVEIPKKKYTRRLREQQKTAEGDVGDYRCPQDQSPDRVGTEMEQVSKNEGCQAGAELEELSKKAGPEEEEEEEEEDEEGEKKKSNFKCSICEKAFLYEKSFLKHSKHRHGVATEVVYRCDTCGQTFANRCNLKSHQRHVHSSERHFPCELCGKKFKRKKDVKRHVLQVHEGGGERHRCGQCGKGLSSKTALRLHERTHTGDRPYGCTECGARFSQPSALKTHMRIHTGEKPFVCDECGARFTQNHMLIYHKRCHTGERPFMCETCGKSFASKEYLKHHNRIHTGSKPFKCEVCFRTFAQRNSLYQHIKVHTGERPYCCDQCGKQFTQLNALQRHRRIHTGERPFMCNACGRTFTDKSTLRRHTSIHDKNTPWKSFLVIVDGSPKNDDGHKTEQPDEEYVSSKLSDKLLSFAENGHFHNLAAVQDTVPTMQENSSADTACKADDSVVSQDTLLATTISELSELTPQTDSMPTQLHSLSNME
UniProt P14866, sequence (whole entry, looked up): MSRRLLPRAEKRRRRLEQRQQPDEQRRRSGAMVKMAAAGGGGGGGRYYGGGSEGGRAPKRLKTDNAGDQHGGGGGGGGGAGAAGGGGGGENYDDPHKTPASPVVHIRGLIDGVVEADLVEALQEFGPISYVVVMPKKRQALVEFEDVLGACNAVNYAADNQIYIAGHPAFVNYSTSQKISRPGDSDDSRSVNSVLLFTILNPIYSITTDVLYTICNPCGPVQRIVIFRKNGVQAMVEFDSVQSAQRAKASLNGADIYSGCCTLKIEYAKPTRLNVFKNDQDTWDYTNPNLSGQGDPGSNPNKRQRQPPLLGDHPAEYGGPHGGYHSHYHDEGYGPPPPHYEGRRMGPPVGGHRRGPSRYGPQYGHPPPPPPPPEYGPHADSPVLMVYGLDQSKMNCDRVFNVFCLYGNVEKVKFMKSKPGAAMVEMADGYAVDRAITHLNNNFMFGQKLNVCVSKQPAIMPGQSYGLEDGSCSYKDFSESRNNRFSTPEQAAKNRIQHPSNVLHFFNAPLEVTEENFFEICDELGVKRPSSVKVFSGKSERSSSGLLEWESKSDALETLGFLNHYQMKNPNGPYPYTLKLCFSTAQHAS
UniProt P39990, sequence (whole entry, looked up): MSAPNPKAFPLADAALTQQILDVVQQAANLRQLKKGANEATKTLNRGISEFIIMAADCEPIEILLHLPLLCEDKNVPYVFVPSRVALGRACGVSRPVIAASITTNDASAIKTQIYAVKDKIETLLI

`DNA 1 TTTGCCTCGAGCCAGCCGCAGACGCAC / DNA 2 CCTAGGTGCGTCTGCGGCTGGCTCGAGGC (dsDNA; primer-template, 24 bp, 5 nt overhang)` has a Kd of 1200 ± 550 nM (PRIMPOL; fluorescence polarization; double-stranded DNA; with: Mg2+ 5 mM).
`GGGGCUCAAUGCGUUCACGUUUAUUCACAUUUUUGAAUUGAGC (structured RNA; 2'-F pyrimidines)` has a Kd of 0.000692 nM (TFRC; SPR; folded RNA).
With `CACGCUCAUGCACACACCCACA (ssRNA)` the Kd was 11.7 ± 3.6 nM (HNRNPL full length assumed (Homo sapiens, UniProt P14866); SPR; RNA).
The Kd of `AACGUACUUUAAGGCCUAUUGAGGAAACUC (ssDNA; all dC Pp-dC; all dU Nap-dU)` is reported as 0.0147 nM (PCSK9 fragment (Homo sapiens); filter binding).
`GATCTCTGCGTGCGCGTCCGTAGCCTACTG (dsDNA)` — result for binding: “no binding” (GZF1; competition; double-stranded DNA, one strand shown).
The Kd of `GCAGCCCAUGAUGGCUGAAUCCGAAAUCCUCGAUGGGUCCAGCUUGAUGUCUUUGCAGC (RNA hairpin (Homo sapiens); K-turn internal loop)` is reported as 180 nM (SNU13 full length assumed (Saccharomyces cerevisiae, UniProt P39990); EMSA; with: Mg2+ 1.5 mM).
`DNA 1 TTTGGGGGAAGGATTC / DNA 2 TCACGGAATCCTTCCCCC (dsDNA; primer-template, 13 bp, 5 nt overhang)` has a Kd of 27 ± 8 nM (PRIMPOL; fluorescence polarization; double-stranded DNA; with: Mn2+ 5 mM).
`TATTTGGAATGTACCGCTATAAACCCGGCT (dsDNA)` — result for binding: “no binding” (GZF1; competition; double-stranded DNA, one strand shown).
`GGGGCUCAAUGCGUUCACGUUUAUUCACAUUUUGAAUUGAGCAUG (structured RNA; 2'-F pyrimidines)` has a Kd of 1.46 nM (TFRC; SPR; folded RNA).
`TTTGCCTCGAGCCAGCCGCAGACGCAC (ssDNA)` has a Kd of 670 ± 180 nM (PRIMPOL; fluorescence polarization; single-stranded DNA; with: Mn2+ 5 mM).
`GATCTCTGCGTGCGCGTCTGCGGCCTACTG (dsDNA)`: binding “no binding” (GZF1; competition; double-stranded DNA, one strand shown).

Repeated from above:
`TTTGCCTCGAGCCAGCCGCAGACGCAC (ssDNA)` has a Kd of 670 ± 180 nM (PRIMPOL; fluorescence polarization; single-stranded DNA; with: Mn2+ 5 mM).
`GGGGCUCAAUGCGUUCACGUUUAUUCACAUUUUUGAAUUGAGC (structured RNA; 2'-F pyrimidines)` has a Kd of 0.000692 nM (TFRC; SPR; folded RNA).
